Literature values, collected from citations in different studies.
Compare with care: the assays were run in different laboratories.

C[C@@H](c1nc(-c2ccc(C#N)cc2)cs1)[C@](O)(Cn1cncn1)c1cc(F)ccc1F
IC50 (UGT1A9 human; inhibitor; human liver microsomes; together with: propofol): 19 µM

COc1cc2c(cc1OC)CN(CCc1ccc(NC(=O)c3cc(OC)c(OC)cc3NC(=O)c3cnc4ccccc4c3)cc1)CC2
IC50 (P-glycoprotein; inhibitor; in vivo): 1.05 µM

CCCS(=O)(=O)Nc1ccc(F)c(C(=O)c2c[nH]c3ncc(-c4ccc(Cl)cc4)cc23)c1F
IC50 (P-glycoprotein; transport, inhibitor; assumed, tested up to 50 µM, together with: digoxin): 17 µM

C[C@@H](c1nc(-c2ccc(C#N)cc2)cs1)[C@](O)(Cn1cncn1)c1cc(F)ccc1F
IC50 (CYP2D6; enzyme activity, inhibitor; together with: bufuralol 1'-hydroxylation): 4.82 µM

COc1cc2c(cc1OC)CN(CCc1ccc(NC(=O)c3cc(OC)c(OC)cc3NC(=O)c3cnc4ccccc4c3)cc1)CC2
IC50 (human BCRP (ABCG2); mitoxantrone transport; BCRP-overexpressing cells): 0.916 µM

O=C(O)c1ccnc(N2CC(O)(c3ccc(OCc4c(-c5c(Cl)cccc5Cl)noc4C4CC4)cc3Cl)C2)c1
IC50 (CYP2C9; inhibitor): 13.6 µM

O=C(O)c1cccc(CN2CN(C3CCCCC3)C3(CCN(CCCC(=O)c4ccccc4)CC3)C2=O)c1
IC50 (hERG potassium channel; inhibitor): 15.6 µM

C[C@@H]1O[C@@H](OC[C@H]2O[C@@H](Oc3c(-c4ccc(O)c(O)c4)oc4cc(O)cc(O)c4c3=O)[C@H](O)[C@@H](O)[C@@H]2O)[C@H](O)[C@H](O)[C@H]1O
IC50 (OATP1B3; transport, inhibitor; not reached, top 150 µM): > 150 µM

C[C@@H](c1nc(-c2ccc(C#N)cc2)cs1)[C@](O)(Cn1cncn1)c1cc(F)ccc1F
IC50 (OCT1; substrate transport; together with: [14C]tetraethylammonium): 3.74 µM

CN1CCN(c2ccc(Nc3ncc4cc5n(c4n3)C3(CCCCC3)CNC5=O)nc2)CC1
IC50 (OCT2; transport, inhibitor): 0.152 µM

CNC(=O)c1cc2c(Oc3ccc(NC(=S)NC(=O)Cc4ccccc4)cc3F)ccnc2cc1OC
IC50 (CYP3A, human; enzyme activity, reversible inhibitor; together with: testosterone): 3.05 µM

Cc1nc(C(=O)NCC(=O)O)c(O)c2ccc(Oc3ccccc3)cc12
IC50 (BCRP; transport activity, inhibitor): 3.05 µM

CN(C)CC=CC(=O)Nc1cc2c(Nc3ccc(F)c(Cl)c3)ncnc2cc1O[C@H]1CCOC1
IC50 (OATP1B3; transport, inhibitor; HEK293; together with: estradiol 17β-glucuronide): > 70 µM

Nc1nc2cccc(-c3ccc(CN4CCS(=O)(=O)CC4)cc3)n2n1
IC50 (OATP1B1; inhibitor): 260 µM

Cc1ccc(OCC(=O)N(Cc2cccs2)c2ccn[nH]2)cc1
IC50 (human CYP2C19; enzyme activity, inhibitor; human liver microsomes; together with: S-mephenytoin): 1.3 µM

O=C(/C=C/C=C/c1ccc2c(c1)OCO2)N1CCCCC1
IC50 (MDR1 (P-glycoprotein), human; efflux transport, inhibitor; Caco-2; together with: cyclosporine A substrate): 74.1 µM

C#Cc1ccc2ccccc2c1
IC50 (cytochrome P450 2A13; coumarin 7-hydroxylation, inhibitor): 1.8 µM

For quick reference, copied from above:
Cc1ccc(OCC(=O)N(Cc2cccs2)c2ccn[nH]2)cc1
IC50 (human CYP2C19; enzyme activity, inhibitor; human liver microsomes; together with: S-mephenytoin): 1.3 µM

O=C(/C=C/C=C/c1ccc2c(c1)OCO2)N1CCCCC1
IC50 (MDR1 (P-glycoprotein), human; efflux transport, inhibitor; Caco-2; together with: cyclosporine A substrate): 74.1 µM
